Measurements gathered from unrelated publications.
Each numbered part is a random draw from the data of one study; scales do not carry over between parts. Changes are numbered by the printed parent chain.

Study 1 — method: RNA Bind-n-Seq; molecule type: RNA; sample: in vitro; concentration: 1 µM; notes: whole 134-nt RNA, ends assumed; added: 150 mM KCl; relative to: input library; direction: higher = stronger binding; quantity: log2 enrichment
Target: Ras GTPase-activating protein-binding protein 1, RRM domain (G3BP1, Homo sapiens, UniProt Q13283)
Sequence of UniProt Q13283 (whole entry, looked up): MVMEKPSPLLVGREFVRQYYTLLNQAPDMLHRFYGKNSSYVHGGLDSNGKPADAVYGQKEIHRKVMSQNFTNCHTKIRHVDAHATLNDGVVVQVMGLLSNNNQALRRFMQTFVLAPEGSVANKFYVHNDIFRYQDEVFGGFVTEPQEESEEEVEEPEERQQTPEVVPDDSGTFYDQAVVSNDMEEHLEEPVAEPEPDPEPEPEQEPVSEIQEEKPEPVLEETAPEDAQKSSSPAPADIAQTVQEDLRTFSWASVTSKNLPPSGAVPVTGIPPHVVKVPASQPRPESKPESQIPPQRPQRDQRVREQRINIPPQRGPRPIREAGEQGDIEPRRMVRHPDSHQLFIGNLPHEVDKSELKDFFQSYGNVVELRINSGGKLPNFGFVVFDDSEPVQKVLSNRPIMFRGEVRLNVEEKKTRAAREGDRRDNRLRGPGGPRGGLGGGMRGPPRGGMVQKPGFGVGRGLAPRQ
Shared flanks, not repeated: GGGAGUUCUACAGUCCGACGAUC … UGGAAUUCUCGGGUGUCAAGG
UGGGAGGUAGAUUUUGUUUAUUUUUUUAGCUCAUUUCCAGGGGUGGGAAUUUUUUUUUAAUAUGUGUCAUGAAUAAAGUUGUUUUUGAAA: 1.73
CUGUGCUACACAUCGUAUGUACCGAAUCGGGCCCCCCGGGGCCCCCCGGGGCCCCCCGGGGAAAGUAUUAUGUUACGCCGUUCGGAUCUG: -0.662
AGUCCUGUGCUACACAUCGUAUGUACCGAAUCGGGUUUGGGAAAAAGGGUUUUUGGGAAAGUAUUAUGUUACGCCGUUCGGAUCUGCACU: 0.442
UCAAGUCCUGUGCUACACAUCGUAUGUACCGAAUCGGAAAAGGAAAAGGAAAAGGAAAGUAUUAUGUUACGCCGUUCGGAUCUGCACUUC: -0.0814
UGUGCUACACAUCGUAUGUACCGAAUCGGGGCCCCCCCGGGCCCCCCCGGGGCCCCCCCGGGAAAGUAUUAUGUUACGCCGUUCGGAUCU: -0.689
CCUGUGCUACACAUCGUAUGUACCGAAUCAAAUUUUUAAACCCCCCCAAACCCCCCCAAAAAAGUAUUAUGUUACGCCGUUCGGAUCUGC: -0.69
CCUGUGCUACACAUCGUAUGUACCGAAUCGGGGCCCCCCCGGCCCCCCCGGGCCCCCCCGGAAAGUAUUAUGUUACGCCGUUCGGAUCUG: -0.591
CCUGUGCUACACAUCGUAUGUACCGAAUCGGGGCCCCCCGGGCCCCCCGGGGCCCCCCGGGAAAGUAUUAUGUUACGCCGUUCGGAUCUG: -0.816
AAGUCCUGUGCUACACAUCGUAUGUACCGAAUCGGGUUUUGGUUUUGGGGUUUUGGAAAGUAUUAUGUUACGCCGUUCGGAUCUGCACUU: -0.222

Study 2 — target: CCNE1, cyclin fold, Cln2 fusion (human); method: yeast growth competition, sequencing; sample: yeast; notes: weak parent motif; relative to: not given; direction: higher = stronger binding; quantity: normalised enrichment score
Starting sequence: CDC6 docking peptide (human); TLKGRRLVFDNQL
TLKGRRLVFDNQR [L13R]: 0.397
TNKGRRLVFDNQL [L2N]: -0.3
TDKGRRLVFDNQL [L2D]: -0.0223
TLKGRRQVFDNQL [L7Q]: 0.615
TLKGRRLKFDNQL [V8K]: 0.31
WLKGRRLVFDNQL [T1W]: 1.07
TLKGRRLVFDNQT [L13T]: -0.0999
TLKGRRLVLDNQL [F9L]: 0.252
TLKQRRLVFDNQL [G4Q]: 0.556
TLKGRRRVFDNQL [L7R]: 1.05
TLKGRRLVFDGQL [N11G]: 0.95
TLTGRRLVFDNQL [K3T]: 0.904
TLKGRRLVFDNQY [L13Y]: 0.456
TLKGRRLVCDNQL [F9C]: -0.368
TLIGRRLVFDNQL [K3I]: 1.01
TLKGRRAVFDNQL [L7A]: 0.265
TLKGRRVVFDNQL [L7V]: 0.21
TLKGRRLVHDNQL [F9H]: -0.189
TLKGRRLVVDNQL [F9V]: -0.951
TLKGRRLNFDNQL [V8N]: 1.37
TEKGRRLVFDNQL [L2E]: 0.0606
LLKGRRLVFDNQL [T1L]: 0.151
TLKGRRLVFENQL [D10E]: -0.31
TLKWRRLVFDNQL [G4W]: 0.0655
TLKNRRLVFDNQL [G4N]: -0.289

Study 3 — method: protein binding microarray; molecule type: double-stranded DNA, one strand shown; sample: in vitro; concentration: not given; relative to: not given; direction: higher = stronger binding; quantity: E-score
Target: Histone acetyltransferase KAT6A, winged helix 2, GST fusion (KAT6A, Homo sapiens, UniProt Q92794, residues 85-181)
Notes: 8-mer, flanks averaged, mean of 2 arrays, mostly near background
Residues (chain): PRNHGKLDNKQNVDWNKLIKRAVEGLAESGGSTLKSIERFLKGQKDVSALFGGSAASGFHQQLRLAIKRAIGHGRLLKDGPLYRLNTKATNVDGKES
GGTTCGAA: 0.108
AGATCGGG: -0.0686
GGCAGGCC: 0.0998
AAGCACTC: 0.0275
TCAGAAAA: 0.0652
AGTGCCGA: 0.117
GGGATACC: -0.0349
CGCTTTCA: -0.00609
AAAGCATA: -0.0274
ACCGCGAA: 0.124
CGGAATAC: 0.0357
AGCACACG: 0.0168
CTGCTTGA: 0.05
AGGGCGGC: 0.0196
ATCAACGA: 0.136
GAACGCGA: 0.0586
GCGGAGAA: 0.138
GATGGTGA: -0.0843
CGGAGCAG: 0.109
CCCCGAAA: 0.0961
CAATTTGA: 0.131
AACTTTGT: -0.0227
GCCGTGCC: 0.182

Study 4 — method: aptamer microarray, sandwich; molecule type: DNA with 2'F-ANA; sample: in vitro; concentration: 200 nM; added: Cy3 exosite-II aptamer, 400 nM; direction: higher = stronger binding; quantity: mean fluorescence intensity; strand: GGTTGGTGTGGTTGG
Target: Prothrombin, mature alpha-thrombin (F2, Homo sapiens, UniProt P00734)
Notes: whole 15-mer aptamer, many near background
2'F-ANA at 2 3 4 6 7 9 13 14 15: 179 a.u.
2'F-ANA at 1 2 4 6 7 10 12: 58.9 a.u.
2'F-ANA at 1 3 4 7 8 12 13 14 15: 158 a.u.
2'F-ANA at 2 3 8 9 11 12 14 15: 440 a.u.
2'F-ANA at 1 2 3 6 7 8 12: 492 a.u.
2'F-ANA at 4 6 10 13 14: 57 a.u.
2'F-ANA at 4 5 7 9 10 12 13 14: 41.9 a.u.
2'F-ANA at 2 3 4 5 6 7 8 9 14 15: 114 a.u.
2'F-ANA at 1 2 3 4 7 8 10 11 12 13: 64.3 a.u.
2'F-ANA at 1 2 4 5 6 7 10 11 12 13 14 15: 75.8 a.u.
2'F-ANA at 3 4 5 6 7 10 12 14: 70.1 a.u.
2'F-ANA at 1 5 6 8 9 10 11 12 14 15: 60.7 a.u.
2'F-ANA at 1 2 4 6 10 13 14: 58.8 a.u.
2'F-ANA at 1 2 3 4 5 7 8 11 15: 69.9 a.u.
2'F-ANA at 1 3 6 8 9 10 11 12 13 15: 91.9 a.u.
2'F-ANA at 1 2 3 5 6 7 9 10 12 14: 48.1 a.u.
2'F-ANA at 3 4 5 6 8 9 11 12 13 15: 102 a.u.
2'F-ANA at 1 2 3 4 5 6 7 10 11 12 14 15: 49 a.u.
2'F-ANA at 1 3 5 7 8 9 10 11 12 13 15: 51.9 a.u.

Study 5 — method: RNA Bind-n-Seq; molecule type: RNA; sample: in vitro; concentration: 100 nM; relative to: input RNA pool; direction: higher = stronger binding; quantity: bound/input enrichment
Target: RING finger protein unkempt homolog, zinc fingers 1-6, SBP tag (UNK, Homo sapiens, UniProt Q9C0B0, residues 30-357)
Sequence of UniProt Q9C0B0 (30-357, looked up): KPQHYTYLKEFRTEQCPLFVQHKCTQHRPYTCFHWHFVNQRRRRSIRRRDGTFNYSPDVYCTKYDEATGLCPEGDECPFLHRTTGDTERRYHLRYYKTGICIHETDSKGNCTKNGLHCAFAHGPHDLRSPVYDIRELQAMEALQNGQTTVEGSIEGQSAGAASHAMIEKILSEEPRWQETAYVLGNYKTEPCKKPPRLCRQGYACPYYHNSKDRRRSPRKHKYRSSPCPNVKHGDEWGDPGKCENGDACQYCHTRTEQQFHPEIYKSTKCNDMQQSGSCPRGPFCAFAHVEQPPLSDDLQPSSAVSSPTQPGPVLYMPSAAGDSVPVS
Notes: RNA with constant flanks, vertebrate orthologous sites, ends assumed
Shared flanks, not repeated: GGGAGUUCUACAGUCCGACGAUC … CAACAGAGGAUUGAGCAUCA
CAACUCCAUGGUCGAGGGCUCAGAACUCAAAAAGGUCCGCUCCAACUCCAGAAUUUACCAUCGGUACUUUUUGCUGGAUGCCGAUAUGCAGAGCCUGAGAUGGGAGCCGUCUAAGAAGGA: 0.173 ratio
UAUUCAGAAUCUUCGUAAGUCAUGCUGAGAUCCAAAAGUUCAUUUUGGAGGAUCUGACCAUAGGAUGGUGUUGCCGUAUCAUUCUGUUCUGGUUUUGUUUCUUGUGUGUUGUUUGUGUGU: 0.361 ratio
GCCCGUGCUUAUGCUCUUCUGAGGAAGAGAGGAAUUGGGGAAAACUGUCUCCUUUUUAUAGUUUCUUUCUAAAUUAUGACCAAAAGAUAUUUUGCUAUUUCUUUCUUUAUAUAUGGACUU: 1.18 ratio
AUUCACUGUACUGCACACCCAUCCUAGUAUCAACUAGCCACAGUGAUGACUUGUCUGUGCUAGUAGAAAUAUUUGCCGUGACCUUUGAAGUCUGCUUUGUCUGAUCCCUGAAACCAAUCA: 0.45 ratio
UCCCUGUAACCCCUUAAAUAGAACUUUCUUAAAAUUGUGUCCCCACCACUUCUAAAAAUUUAGCAAUAUUAGAAGACAACACUAAGAAAUUGUGCUCAUUGUUUUGCAAAUGAAAUAGUU: 1.07 ratio
AGAUCUACUUCAUGCCUUGGACUCCUUACAGAACAGACACUCUAAUUGAGUAUUCCUCCCUGGAUGAUUUCCAGAAUUCUCGACAAACGAUCACCUAUAAACUACCACACCGUGUGGAUG: 0.467 ratio
GUAUGUAGAGAAAAAUUUUCAUUGACCCCCCCCCAUUGUGAAAUUCCCUAGCAAUUUAUUUAGAAUCUUAAAUUUUCUAAUUAAAGCUCAUUGUAUUAGUCAUUUUUAGCAUAAUUAAAA: 3.22 ratio
ACCUAAAAUUAUAGCAAAAGACCAAGCAGUAGCAGUUGUUUUUGUAAAUGUAAAAAUAAUUAGAUGCAAACUGUUUCCUUCAGUUUUAAGAAUAAAAUACCUCAGAGCUAUGUUCACCAG: 0.632 ratio
